# Measurements collected from several papers.
# Protocols differ between the studies behind these lines. Numbers after ± are the reported error.
# Chain of UniProt P61981 (whole entry, looked up): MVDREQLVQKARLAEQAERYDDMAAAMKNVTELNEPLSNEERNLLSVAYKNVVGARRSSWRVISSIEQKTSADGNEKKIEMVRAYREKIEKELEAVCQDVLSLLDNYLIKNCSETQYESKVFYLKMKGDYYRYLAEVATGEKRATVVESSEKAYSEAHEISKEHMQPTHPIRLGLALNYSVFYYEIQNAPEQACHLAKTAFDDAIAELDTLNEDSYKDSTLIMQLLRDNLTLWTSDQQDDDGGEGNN
# Chain of UniProt Q04206 (whole entry, looked up): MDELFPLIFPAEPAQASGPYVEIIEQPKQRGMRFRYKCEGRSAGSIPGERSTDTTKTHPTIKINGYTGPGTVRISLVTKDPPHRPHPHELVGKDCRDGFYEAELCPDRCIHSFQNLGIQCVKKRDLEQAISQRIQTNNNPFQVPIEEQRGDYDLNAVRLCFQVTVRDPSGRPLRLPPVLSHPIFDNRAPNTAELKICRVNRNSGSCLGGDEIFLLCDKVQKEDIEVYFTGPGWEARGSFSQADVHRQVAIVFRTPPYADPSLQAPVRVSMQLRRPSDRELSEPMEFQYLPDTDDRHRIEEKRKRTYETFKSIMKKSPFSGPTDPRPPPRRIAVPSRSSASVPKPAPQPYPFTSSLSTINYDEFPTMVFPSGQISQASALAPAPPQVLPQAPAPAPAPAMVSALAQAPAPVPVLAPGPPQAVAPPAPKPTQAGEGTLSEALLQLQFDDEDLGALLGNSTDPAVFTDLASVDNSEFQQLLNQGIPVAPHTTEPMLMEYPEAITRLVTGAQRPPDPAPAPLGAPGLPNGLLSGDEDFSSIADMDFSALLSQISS
Structure (SMILES),tested on,test,system,setting,scale,quantity,value
NC(=O)[C@H](CCCN=C(N)CF)NC(=O)c1ccccc1,OCI-Ly1,,,"1 µM, 120 h",,viability,151%
CC(C)NC(=O)COc1cccc(-c2nc(Nc3ccc4[nH]ncc4c3)c3ccccc3n2)c1,,,human,"200 mg daily, clinical DDI study",,tolerability,not toxic
C=CCn1c(=O)c2cnc(Nc3ccc(N4CCN(C)CC4)cc3)nc2n1-c1ccc2c(n1)[C@@](O)(CC)CC2,,,human,400 mg once daily intermittent 5:2,,tolerability,not toxic
CC1(C)CC[C@]2(NC(=O)C(C)(F)F)CC[C@]3(C)[C@H](C(=O)C=C4[C@@]5(C)C=C(C#N)C(=O)C(C)(C)[C@@H]5CC[C@]43C)[C@@H]2C1,,,human,alone or with DME/transporter modulators,,tolerability,not toxic
COCCCOc1ccnc(C[S+]([O-])c2nc3ccccc3[nH]2)c1C (stereo not drawn),,,healthy humans,,,tolerability,not toxic
N=C(N)NCc1cccc([131I])c1,,,human,,,tolerability,not toxic
O=Cc1ccc([N+](=O)[O-])c(N2CCOCC2)c1,"YWHAG/RELA, phospho-Ser45 p65 peptide (Homo sapiens, UniProt P61981+Q04206)","ternary complex formation, stabilizer, fluorescence anisotropy",,,,EC50,> 1000 µM
Cc1cc(C)c(CNC(=O)c2cc(-c3ccc(CN4CCOCC4)cc3)cc3c2cnn3C2CCCC2)c(=O)[nH]1,OCI-Ly1,,,"0.5 µM, 120 h",,viability,163%
Clc1ccc(C(c2c[nH]c3ccccc23)c2c[nH]c3ccccc23)cc1,COS-7,,,"10 µM, 24 h, 0.1% DMSO, unit not given",reference: vehicle control,apoptotic cells,4.2 ± 0.13
Cn1c(=O)oc2ccc(-c3ccc(C[C@@H](C#N)NC(=O)[C@@H]4CNCCCO4)cc3)cc21,,,"human, varying renal function","oral, 25 mg single",,tolerability,not toxic
Cc1cc(C)c(CNC(=O)c2cc(Cl)c3c(c2C)O[C@@](C)([C@H]2CC[C@H](N(C)C)CC2)O3)c(=O)[nH]1,,,healthy human male,200 mg single dose,,tolerability,not toxic
CC(C)C[C@H](NC(=O)[C@H](CC(C)C)NC(=O)[C@H](Cc1c[nH]c2ccccc12)NC(=O)[C@H](CCC(=O)O)NC(=O)[C@@H](NC(=O)[C@H](Cc1ccccc1)NC(=O)[C@H](CCC(=O)O)NC(=O)[C@H](CCCCNC(=O)COCCOCCNC(=O)COCCOCCNC(=O)CC[C@H](NC(=O)CCCCCCCCCCCCCCCCCCC(=O)O)C(=O)O)NC(=O)[C@H](C)NC(=O)[C@H](CCCCN)NC(=O)[C@H](CCCCN)NC(=O)[C@H](CCC(=O)O)NC(=O)[C@H](CC(=O)O)NC(=O)[C@H](CC(C)C)NC(=O)[C@H](Cc1ccc(O)cc1)NC(=O)[C@H](CCCCN)NC(=O)[C@H](CO)NC(=O)[C@H](Cc1ccc(O)cc1)NC(=O)[C@H](CC(=O)O)NC(=O)[C@H](CO)NC(=O)[C@@H](NC(=O)[C@H](Cc1ccccc1)NC(=O)[C@@H](NC(=O)CNC(=O)[C@H](CCC(N)=O)NC(=O)C(C)(C)NC(=O)[C@@H](N)Cc1c[nH]cn1)[C@@H](C)O)[C@@H](C)O)C(C)C)C(=O)N[C@@H](CCC(=O)O)C(=O)NCC(=O)NCC(=O)N1CCC[C@H]1C(=O)N[C@@H](CO)C(=O)N[C@@H](CO)C(=O)NCC(N)=O,,,human obesity or overweight,"subcutaneous, 16 mg weekly, trial",,tolerability,not toxic
CN1C(=O)[C@@H](NC(=O)c2nnc(Cc3ccccc3)[nH]2)COc2cccnc21,,,"human, healthy subjects","dose not given, 14 days",,tolerability,not toxic
O=C(O)CCc1nc(-c2ccccc2)c(-c2ccccc2)o1,COS-7,,,"100 µM, 24 h, 0.1% DMSO, unit not given",reference: control,apoptosis,0.76 ± 0.12
CC(C)n1c(Nc2cccnc2)nc2cnc(Nc3ccc(N4CCN(C)CC4)cc3)nc21,,,"healthy human, male","single dose, alone or co-administered, added: itraconazole, gemfibrozil or rifampin",,tolerability,not toxic

# Repeated from above:
Structure (SMILES),tested on,test,system,setting,scale,quantity,value
CC(C)NC(=O)COc1cccc(-c2nc(Nc3ccc4[nH]ncc4c3)c3ccccc3n2)c1,,,human,"200 mg daily, clinical DDI study",,tolerability,not toxic
